Assay results pooled from the literature.
A part holds a random share of what one study measured.

Block 1
Target: RING finger protein unkempt homolog, zinc fingers 1-6, GST-SBP tag (UNK, Homo sapiens, UniProt Q9C0B0, residues 30-357)
Technique: RNA Bind-n-Seq
Molecule type: RNA
Matrix: in vitro
Concentration: not given
Setting: RNA with constant flanks, ends assumed
Reference: input RNA pool
Reading: higher = stronger binding
Residues (chain): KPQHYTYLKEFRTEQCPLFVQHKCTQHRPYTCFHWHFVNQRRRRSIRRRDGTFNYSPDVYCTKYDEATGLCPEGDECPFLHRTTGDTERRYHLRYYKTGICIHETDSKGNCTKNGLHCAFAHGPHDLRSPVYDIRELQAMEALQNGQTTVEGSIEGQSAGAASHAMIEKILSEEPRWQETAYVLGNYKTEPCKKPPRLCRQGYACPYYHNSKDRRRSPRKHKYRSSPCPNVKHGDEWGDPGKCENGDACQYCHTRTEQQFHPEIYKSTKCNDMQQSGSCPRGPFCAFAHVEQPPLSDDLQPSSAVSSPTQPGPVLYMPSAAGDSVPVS
| Strand | bound/input enrichment |
| --- | --- |
| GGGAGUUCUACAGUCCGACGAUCUCUGCUACACGGGAGCCACCAUACAGAGUACCUAGGGAUGAUUGGGAAGAAAAAAGGCACUUCCGAAGAGAUAGUUUUGAUGAUCGUGGUCCUAGUCUCAACCCAGUGCUUGAUUAUGACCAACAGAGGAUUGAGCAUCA | 0.453 ratio |
| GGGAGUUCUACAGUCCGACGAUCGUCCCAGGCUCUCUGUUGACAGAGUUGGCUCUCUAGAGUCUCGUACUUUAUUCAUAAAUCCCGCCGGAGCGAGGACACAUUAGUAGAUGCAGAAGUGAAAUGUUUUCACUGUCACUGUGACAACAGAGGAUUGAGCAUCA | 1.51 ratio |
| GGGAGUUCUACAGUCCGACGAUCUAGCUCUCCCUGUGCUAACUGCCUGCGCCUUGACAGCCGGGCUGCGCAAAGCAGAGGGAUCCGUUGGGACCUGCCUUGGUGACCCCAUGGCAUCCCCACGAACCAUAACUAUCAUGGCCCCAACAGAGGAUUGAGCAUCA | 0.0697 ratio |
| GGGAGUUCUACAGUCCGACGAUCAUCUCUGCUAUGAACAAGGUUGCAGAAGUUUUACAAGUACCUCCAAUGAGAGUAUAUGAAGCCGCAACUUUUUAUACAAUGUAUAAUCGAAAGCCAGUUGGAAAGUAUCACAUUCAGGUCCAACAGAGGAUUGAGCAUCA | 0.101 ratio |
| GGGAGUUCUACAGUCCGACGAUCUCUCCAGAACAUAAAGAACUGUCUAACUCCCCACUCAGGGAGAACAGCUUUGGAUCACCUUCCGAAUUUAGAAACUCAGGCCCACUUGGUACAGAAAUGAAUACUGGAUUUUCUUCUGAGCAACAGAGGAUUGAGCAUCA | 0.195 ratio |
| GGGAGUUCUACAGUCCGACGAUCGAAAAACCAUCUCCUAUCCAGGAGGAGAGCAUUCCCAUUGCUUUAUCUGGUAGGGAUAUCUCCGCCCGAGCAAAAAAUGGAACAGGCAAAAGCGGUGCCUACCUCAUCCCCUUACUUGAACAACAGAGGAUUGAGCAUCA | 0.152 ratio |
| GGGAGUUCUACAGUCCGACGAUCCCAAUUUUCUGGAUUGGACUGAUCAGUUCAGUUUGCUGUGUGUUUGCUCAAACAGAUGAAAACCGAUGUUUAAAAGCAAAUGCCAAAUCAUGUGGAGAAUGUAUACAAGCAGGGCCAAAUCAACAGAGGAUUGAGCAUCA | 0.136 ratio |
| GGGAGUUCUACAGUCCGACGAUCGUCUGUCUCAAGGGUACUUAAGCAGCAGAGACCCCUGAAUAUAGGGAUUCUACCUUUUCUUUCCGAAUGGGACUUUUCUAGUGUGAGUGUCUAGGUUGGAUAGGAGACCUUGCCAAAUUCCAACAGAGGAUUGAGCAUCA | 0.71 ratio |

Block 2
Target: Interferon regulatory factor 5, full length, phosphomimetic (IRF5, Homo sapiens, UniProt Q13568-2, residues 1-514, K96S/S451D/S453D/S456D/S462D)
Technique: protein-binding microarray
Molecule type: double-stranded DNA, one strand shown
Matrix: in vitro
Concentration: 250 nM
Setting: 60-bp whole probe
Added: salmon DNA 0.4 mg/ml
Reference: random background probes
Reading: higher = stronger binding
Shared flanks, not repeated: GCCTAGCAC … GTCTTGATTCGCTTGACGCTGCTG
| Strand | log fluorescence [z-score] |
| --- | --- |
| TTGGATTTCAGTCTCGATTAGTGCTAG | 2.45 |
| GACGGTTTCCTACTGCTAACGTGCTAG | 0.243 |
| TTAGATTTCAGTTCAGATTAGTGCTAG | 2.28 |
| GACGACCTGGGGTATCGAGACGTGCTA | 0.178 |
| TGGAAACTCGTATGTGACCTTGTGCTA | 0.00948 |
| TTAGAACTGGGGCTTCGATTAGTGCTA | 0.0936 |
| GACGGTATCGGACCGGGGACGTGCTAG | 0.437 |
| AACCGCCTCTCCCTTAGACGGTGCTAG | -0.321 |
| TCAGTTTTAAATTCTAAACTGTGCTAG | 0.377 |
| GACGGTGTCGACTATCGGGACGTGCTA | 1.21 |
| TTAGGTCTCCTGTTCCTTTAGTGCTAG | -0.23 |
| GTAGGACTGCTACTGCTTTAGTGCTAG | -0.707 |
| GATGATTTCAGTATCGAGACGTGCTAG | 4.33 |
| TCATGTTTTCATTTTATACTGTGCTAG | 2.5 |
| TCAATCGTAAGCAAAAAACTGTGCTAG | 0.633 |
| GACTGTCTCGGTTTCGGGACGTGCTAG | 3.85 |
| GACGGTATCGGTATCGGTACGTGCTAG | 8.52 |
| GACGGGTTCCTTATCCTGACGTGCTAG | -0.432 |
| TTAGATTTCAGTATCAATTAGTGCTAG | 3.88 |

Block 3
Target: Histone acetyltransferase KAT6A, winged helix 2, GST fusion (KAT6A, Homo sapiens, UniProt Q92794, residues 85-181)
Technique: protein binding microarray
Molecule type: double-stranded DNA, one strand shown
Matrix: in vitro
Concentration: not given
Setting: 8-mer, flanks averaged, mean of 2 arrays, mostly near background
Reference: not given
Reading: higher = stronger binding
Residues (chain): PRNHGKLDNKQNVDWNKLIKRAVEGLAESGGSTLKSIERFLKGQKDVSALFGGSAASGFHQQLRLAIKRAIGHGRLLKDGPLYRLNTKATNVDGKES
| Strand | E-score |
| --- | --- |
| GCCCACAC | 0.184 |
| ACGAACTG | -0.0182 |
| CCCTACGA | -0.157 |
| CACTTTAG | -0.0396 |
| AGTCCTCC | -0.144 |
| TCGCAGCA | 0.116 |
| ATTCAACA | 0.0208 |
| GCGGAAGA | 0.142 |
| ACTTTTTG | 0.0935 |
| AGTAAATG | -0.0758 |
| TGCCGGAA | 0.177 |
| GACATCAC | -0.0526 |
| AGATAACG | -0.0945 |
| AACTAAGG | 0.017 |
| ATCCGGCG | 0.0484 |
| CGGCACAC | 0.165 |
| GGAAGGCC | -0.0408 |
| ACTTAATC | -0.11 |
| CAGGCTGC | 0.0196 |
| TACACCGA | 0.0563 |
| ATGGCCAC | -0.203 |
| ATCTGAGG | -0.116 |
| CCCTCTAA | 0.0536 |
| AATGGTTC | 0.0434 |
| ACCAAGAA | 0.198 |

Block 4
Target: PABPC1L2, full length, GST fusion (mouse, UniProt A0ABA7IW68)
Technique: RNAcompete
Molecule type: RNA
Matrix: in vitro
Concentration: 20 nM
Setting: 7-mer, probes averaged, single round
Reference: mean of 7-mers
Reading: higher = stronger binding
Residues (chain): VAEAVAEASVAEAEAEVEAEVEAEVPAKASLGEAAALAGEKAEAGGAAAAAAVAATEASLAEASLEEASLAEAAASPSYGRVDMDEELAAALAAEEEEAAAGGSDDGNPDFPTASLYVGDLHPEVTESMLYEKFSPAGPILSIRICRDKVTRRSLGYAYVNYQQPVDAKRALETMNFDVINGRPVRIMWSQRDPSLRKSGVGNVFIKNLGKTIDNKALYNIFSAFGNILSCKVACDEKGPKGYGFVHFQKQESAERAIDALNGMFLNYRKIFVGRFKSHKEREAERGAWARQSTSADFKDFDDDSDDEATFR
| Strand | 7-mer Z-score |
| --- | --- |
| CUUACUC | -0.237 |
| CUGGAGG | 0.124 |
| CUGGAGC | -0.0192 |
| ACUCCUU | -0.289 |
| CGACGCG | -0.173 |
| GGCUGAG | 0.43 |
| AACUUCA | 0.00436 |
| ACCUUAA | 0.0551 |
| AUUCAAG | 0.046 |
| UCUACCU | -0.278 |
| CACCAGC | -0.28 |
| AUAGAAG | 0.314 |
| CGCGAUA | -0.0446 |
| CAAUGCU | -0.211 |
| CACCAAA | 0.885 |
| CAUCACU | -0.19 |
| UAAACCG | 0.113 |
| UUAAGAG | -0.0283 |
| CUUCUCA | -0.434 |
| CCAUGGU | -0.171 |

For quick reference, copied from above (block 1):
| Strand | bound/input enrichment |
| --- | --- |
| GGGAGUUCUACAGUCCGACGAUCUCUCCAGAACAUAAAGAACUGUCUAACUCCCCACUCAGGGAGAACAGCUUUGGAUCACCUUCCGAAUUUAGAAACUCAGGCCCACUUGGUACAGAAAUGAAUACUGGAUUUUCUUCUGAGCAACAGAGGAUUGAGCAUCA | 0.195 ratio |
| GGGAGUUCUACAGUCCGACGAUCGAAAAACCAUCUCCUAUCCAGGAGGAGAGCAUUCCCAUUGCUUUAUCUGGUAGGGAUAUCUCCGCCCGAGCAAAAAAUGGAACAGGCAAAAGCGGUGCCUACCUCAUCCCCUUACUUGAACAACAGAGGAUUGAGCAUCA | 0.152 ratio |
| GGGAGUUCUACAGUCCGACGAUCAUCUCUGCUAUGAACAAGGUUGCAGAAGUUUUACAAGUACCUCCAAUGAGAGUAUAUGAAGCCGCAACUUUUUAUACAAUGUAUAAUCGAAAGCCAGUUGGAAAGUAUCACAUUCAGGUCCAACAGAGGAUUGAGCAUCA | 0.101 ratio |
| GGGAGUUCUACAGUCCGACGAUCUCUGCUACACGGGAGCCACCAUACAGAGUACCUAGGGAUGAUUGGGAAGAAAAAAGGCACUUCCGAAGAGAUAGUUUUGAUGAUCGUGGUCCUAGUCUCAACCCAGUGCUUGAUUAUGACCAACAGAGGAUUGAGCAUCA | 0.453 ratio |
| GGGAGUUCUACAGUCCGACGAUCGUCUGUCUCAAGGGUACUUAAGCAGCAGAGACCCCUGAAUAUAGGGAUUCUACCUUUUCUUUCCGAAUGGGACUUUUCUAGUGUGAGUGUCUAGGUUGGAUAGGAGACCUUGCCAAAUUCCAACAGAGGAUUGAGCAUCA | 0.71 ratio |
| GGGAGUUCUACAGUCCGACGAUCUAGCUCUCCCUGUGCUAACUGCCUGCGCCUUGACAGCCGGGCUGCGCAAAGCAGAGGGAUCCGUUGGGACCUGCCUUGGUGACCCCAUGGCAUCCCCACGAACCAUAACUAUCAUGGCCCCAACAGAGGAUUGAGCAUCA | 0.0697 ratio |
| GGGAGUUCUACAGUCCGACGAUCGUCCCAGGCUCUCUGUUGACAGAGUUGGCUCUCUAGAGUCUCGUACUUUAUUCAUAAAUCCCGCCGGAGCGAGGACACAUUAGUAGAUGCAGAAGUGAAAUGUUUUCACUGUCACUGUGACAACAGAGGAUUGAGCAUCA | 1.51 ratio |
| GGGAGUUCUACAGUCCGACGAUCCCAAUUUUCUGGAUUGGACUGAUCAGUUCAGUUUGCUGUGUGUUUGCUCAAACAGAUGAAAACCGAUGUUUAAAAGCAAAUGCCAAAUCAUGUGGAGAAUGUAUACAAGCAGGGCCAAAUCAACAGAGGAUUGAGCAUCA | 0.136 ratio |
